Measured values gathered from unrelated publications.
Protocols differ between the studies behind these lines.
Cell line: HCC 2998

Structure (SMILES) | test | conditions | how to read | endpoint | result
COc1cc(CNC(=O)C[C@H](C)CCC=C(C)C)ccc1OCc1cn(-c2ccc(Cl)cc2Cl)nn1 | SRB | 10 µM, 48 h | – | growth percent | 92.5%
O=C1Nc2ccccc2/C1=N\Nc1nnc2n1N=C(c1ccc(Cl)cc1)CS2 | cell growth or viability, SRB | 10 µM | – | inhibition | 13%
CC/C=C\C/C=C\C/C=C\C/C=C\C/C=C\C/C=C\CCC(=O)Nc1ccn(C2OC(CO)C(O)C2(F)F)c(=O)n1 (stereo not drawn) | NCI60 screen | – | – | TGI | 26700 nM
COc1cc(CNC(=O)C[C@H](C)CCC=C(C)C)ccc1OCc1cn(-c2ccc(F)cc2)nn1 | SRB | 10 µM, 48 h | – | growth percent | 94.9%
CC(=C(c1ccc(O)cc1)c1ccc(Cl)cc1)c1ccc(Cl)cc1 | cell growth or viability, SRB | – | – | GI50 | 750 nM
COc1cc(CNC(=O)C[C@H](C)CCC=C(C)C)ccc1OCc1cn(-c2cccc(Cl)c2)nn1 | SRB | 10 µM, 48 h | – | growth percent | 94.7%
CC(Cc1ccc(Cl)cc1)=C(c1ccc(Cl)cc1)c1ccc(OCCN(C)C)cc1 | cell growth or viability, SRB | – | – | GI50 | 2030 nM
CC(=O)OC[C@H]1O[C@@H](Sc2sc(C(=O)c3ccc(Br)cc3)c(N)c2-c2nc3ccccc3s2)[C@H](OC(C)=O)[C@@H](OC(C)=O)[C@@H]1OC(C)=O | SRB | 10 µM, 48 h | baseline: untreated | growth | 85%
COc1ccc2c(c1)/C(=N\Nc1nnc3n1N=C(c1ccccc1)CS3)C(=O)N2 | cell growth or viability, SRB | 10 µM | – | inhibition | 12%

Excerpt of the above:
Structure (SMILES) | test | conditions | how to read | endpoint | result
CC(Cc1ccc(Cl)cc1)=C(c1ccc(Cl)cc1)c1ccc(OCCN(C)C)cc1 | cell growth or viability, SRB | – | – | GI50 | 2030 nM
